Assay results from different studies.
Parts stem from different laboratories: compare values within a part only.
UniProt P29376, sequence (whole entry, looked up): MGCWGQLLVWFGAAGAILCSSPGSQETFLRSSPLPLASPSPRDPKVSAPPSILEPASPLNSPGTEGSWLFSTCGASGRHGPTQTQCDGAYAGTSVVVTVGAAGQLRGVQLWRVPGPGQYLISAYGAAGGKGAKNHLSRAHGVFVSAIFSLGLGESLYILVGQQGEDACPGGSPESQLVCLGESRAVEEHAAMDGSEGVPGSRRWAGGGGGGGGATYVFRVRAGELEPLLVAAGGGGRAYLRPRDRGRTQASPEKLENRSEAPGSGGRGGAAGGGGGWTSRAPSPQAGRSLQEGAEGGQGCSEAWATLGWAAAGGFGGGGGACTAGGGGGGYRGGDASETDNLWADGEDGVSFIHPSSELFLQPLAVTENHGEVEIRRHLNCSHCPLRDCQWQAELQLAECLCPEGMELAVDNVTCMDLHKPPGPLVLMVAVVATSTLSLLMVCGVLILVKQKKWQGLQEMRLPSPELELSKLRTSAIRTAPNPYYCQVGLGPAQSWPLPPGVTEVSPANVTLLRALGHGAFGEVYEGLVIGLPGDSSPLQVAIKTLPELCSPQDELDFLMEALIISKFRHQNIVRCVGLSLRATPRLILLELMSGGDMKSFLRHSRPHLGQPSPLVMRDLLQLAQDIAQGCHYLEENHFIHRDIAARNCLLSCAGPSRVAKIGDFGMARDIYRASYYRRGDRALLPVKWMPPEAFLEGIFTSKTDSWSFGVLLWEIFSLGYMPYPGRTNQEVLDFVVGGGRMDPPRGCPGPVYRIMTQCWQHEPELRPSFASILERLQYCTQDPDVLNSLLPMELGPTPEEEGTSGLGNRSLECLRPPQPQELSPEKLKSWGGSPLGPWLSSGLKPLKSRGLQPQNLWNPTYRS
UniProt Q9P289, sequence (whole entry, looked up): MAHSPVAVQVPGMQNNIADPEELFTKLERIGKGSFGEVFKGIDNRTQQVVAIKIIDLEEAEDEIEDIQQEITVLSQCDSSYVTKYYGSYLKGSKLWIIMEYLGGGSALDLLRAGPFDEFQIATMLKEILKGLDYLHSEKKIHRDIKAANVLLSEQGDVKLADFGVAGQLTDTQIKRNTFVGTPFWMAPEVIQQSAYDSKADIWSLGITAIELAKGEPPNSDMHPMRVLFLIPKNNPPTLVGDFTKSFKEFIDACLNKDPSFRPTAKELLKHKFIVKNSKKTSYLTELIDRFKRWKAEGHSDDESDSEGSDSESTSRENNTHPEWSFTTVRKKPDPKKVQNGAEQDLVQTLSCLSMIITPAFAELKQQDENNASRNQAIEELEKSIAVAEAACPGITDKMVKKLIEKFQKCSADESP
UniProt Q9P0L2, sequence (whole entry, looked up): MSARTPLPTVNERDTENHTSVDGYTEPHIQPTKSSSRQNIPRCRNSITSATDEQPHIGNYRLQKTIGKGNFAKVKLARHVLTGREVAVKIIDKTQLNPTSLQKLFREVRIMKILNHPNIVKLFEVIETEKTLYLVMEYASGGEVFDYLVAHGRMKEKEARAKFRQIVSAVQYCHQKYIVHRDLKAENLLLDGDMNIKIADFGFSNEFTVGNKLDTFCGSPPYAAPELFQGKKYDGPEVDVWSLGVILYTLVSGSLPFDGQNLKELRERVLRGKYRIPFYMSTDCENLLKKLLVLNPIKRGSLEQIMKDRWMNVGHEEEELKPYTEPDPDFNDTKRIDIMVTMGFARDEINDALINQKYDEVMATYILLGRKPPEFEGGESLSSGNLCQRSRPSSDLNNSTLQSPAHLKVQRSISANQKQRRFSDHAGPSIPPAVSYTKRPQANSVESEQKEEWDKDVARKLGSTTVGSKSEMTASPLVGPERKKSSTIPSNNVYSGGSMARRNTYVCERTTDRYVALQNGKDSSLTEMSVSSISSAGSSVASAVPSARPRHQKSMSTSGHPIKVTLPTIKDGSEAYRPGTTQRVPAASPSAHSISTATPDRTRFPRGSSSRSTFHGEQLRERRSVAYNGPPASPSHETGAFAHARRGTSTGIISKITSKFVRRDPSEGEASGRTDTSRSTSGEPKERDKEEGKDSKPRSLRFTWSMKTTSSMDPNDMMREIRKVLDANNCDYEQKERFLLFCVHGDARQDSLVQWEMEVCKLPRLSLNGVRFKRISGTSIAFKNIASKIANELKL

Study 1
SMILES: Nc1c(C(=O)NCc2ccc(C(=O)NCCCC3CCCCC3)cc2)cnn1-c1ccccc1
Effect on: cell-free assay
Technique: competition with immobilised ligand
Concentration: 0.1 µM
target | remaining binding [%]
MARK1 (Homo sapiens, UniProt Q9P0L2) | 79
PHKG1 (Homo sapiens, UniProt Q16816) | 90
PRKD1 (Homo sapiens, UniProt Q15139) | 100
SNRK (Homo sapiens, UniProt Q9NRH2) | 91
LTK (Homo sapiens, UniProt P29376) | 100
STK26 (Homo sapiens, UniProt Q9P289) | 97
LYN (Homo sapiens, UniProt P07948) | 100

Study 2
Cell line: A-375
Concentration: 100 µM
Time: 18 h
Compound | viability
c1cnc(N2CCN(Cc3ccc4c(c3)OCO4)CC2)nc1 | 93.1%
CCOC(=O)N[C@@H]1CC[C@@H]2[C@@H](C1)C[C@H]1C(=O)O[C@H](C)[C@H]1[C@H]2/C=C/c1ccc(-c2cccc(F)c2)cn1 | 103%
OCCOCCN1CCN(C(c2ccccc2)c2ccc(Cl)cc2)CC1 (stereo not drawn) | 67.2%
CC(C)(C)NCC(O)COc1cccc2c1CCC(=O)N2 (stereo not drawn) | 93.9%
NC(=O)c1ncn([C@@H]2O[C@H](CO)[C@@H](O)[C@H]2O)c1O | 105%

Study 3
Target: Serine/threonine-protein kinase Nek6 (NEK6, Homo sapiens, UniProt Q9HC98)
UniProt Q9HC98, sequence (whole entry, looked up): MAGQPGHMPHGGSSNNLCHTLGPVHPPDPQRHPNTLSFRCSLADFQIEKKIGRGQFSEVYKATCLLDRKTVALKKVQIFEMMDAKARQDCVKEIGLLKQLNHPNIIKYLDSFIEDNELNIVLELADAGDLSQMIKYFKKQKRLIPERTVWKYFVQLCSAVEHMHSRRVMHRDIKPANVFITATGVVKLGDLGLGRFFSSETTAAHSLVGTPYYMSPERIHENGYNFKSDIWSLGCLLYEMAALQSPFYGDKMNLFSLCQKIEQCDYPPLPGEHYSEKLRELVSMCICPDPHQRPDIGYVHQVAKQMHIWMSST
Effect on: enzyme activity
Action: inhibitor
Concentration: 0.5 µM
Relative to: control
SMILES | remaining activity
O=C1NC(=O)C(c2cn(CCCn3ccnc3)c3ccccc23)=C1Nc1ccccc1 | 93.6%
Nc1ncnc2n[nH]c(Nc3ccc(F)cc3)c12 | 102%
NCCNc1ncc(C(N)=O)c(Nc2cccc(C(F)(F)F)c2)n1 | 105%
N#CC(C#N)=C(N)/C(C#N)=C/c1ccc(O)cc1 | 97.3%
O=C(CCCc1ccc(-c2ccccc2F)cc1)Nc1ccc(O)cc1 | 99.4%
Cc1cccc(-c2[nH]c(C(C)(C)C)nc2-c2ccc3c(c2)OCO3)n1 | 109%
Oc1ccc(-c2nc(-c3ccncc3)c(-c3ccc(F)cc3)[nH]2)cc1 | 99.4%
C#Cc1cccc(Nc2ncnc3cc(OCCOC)c(OCCOC)cc23)c1 | 89.1%
Nc1ccc2ncnc(NCCc3ccc(Oc4ccccc4)cc3)c2c1 | 103%
COc1cc2nccc(Oc3ccc(NC(=S)NC(=O)c4ccccc4C)cc3)c2cc1OC | 92.4%
COc1ccc(OC)c2c(=S)c3ccccc3[nH]c12 | 101%
Cn1sc(=O)n(Cc2ccccc2)c1=O | 102%
CNC(=O)c1cc(Oc2ccc(NC(=O)Nc3ccc(Cl)c(C(F)(F)F)c3)cc2)ccn1 | 105%
CC(C)[C@H](CO)Nc1nc(Nc2cc(N)cc(Cl)c2)c2ncn(C(C)C)c2n1 | 111%
COc1cc2ncnc(Nc3ccc(Oc4ccccc4)cc3)c2cc1OC | 93%
COc1cc2ncnc(Nc3ccc(F)c(Cl)c3)c2cc1OCCCN1CCOCC1 | 89.9%

Study 4
Target: DNA polymerase theta, ATPase domain (POLQ, Homo sapiens, UniProt O75417)
UniProt O75417, sequence (whole entry, unmodified, looked up): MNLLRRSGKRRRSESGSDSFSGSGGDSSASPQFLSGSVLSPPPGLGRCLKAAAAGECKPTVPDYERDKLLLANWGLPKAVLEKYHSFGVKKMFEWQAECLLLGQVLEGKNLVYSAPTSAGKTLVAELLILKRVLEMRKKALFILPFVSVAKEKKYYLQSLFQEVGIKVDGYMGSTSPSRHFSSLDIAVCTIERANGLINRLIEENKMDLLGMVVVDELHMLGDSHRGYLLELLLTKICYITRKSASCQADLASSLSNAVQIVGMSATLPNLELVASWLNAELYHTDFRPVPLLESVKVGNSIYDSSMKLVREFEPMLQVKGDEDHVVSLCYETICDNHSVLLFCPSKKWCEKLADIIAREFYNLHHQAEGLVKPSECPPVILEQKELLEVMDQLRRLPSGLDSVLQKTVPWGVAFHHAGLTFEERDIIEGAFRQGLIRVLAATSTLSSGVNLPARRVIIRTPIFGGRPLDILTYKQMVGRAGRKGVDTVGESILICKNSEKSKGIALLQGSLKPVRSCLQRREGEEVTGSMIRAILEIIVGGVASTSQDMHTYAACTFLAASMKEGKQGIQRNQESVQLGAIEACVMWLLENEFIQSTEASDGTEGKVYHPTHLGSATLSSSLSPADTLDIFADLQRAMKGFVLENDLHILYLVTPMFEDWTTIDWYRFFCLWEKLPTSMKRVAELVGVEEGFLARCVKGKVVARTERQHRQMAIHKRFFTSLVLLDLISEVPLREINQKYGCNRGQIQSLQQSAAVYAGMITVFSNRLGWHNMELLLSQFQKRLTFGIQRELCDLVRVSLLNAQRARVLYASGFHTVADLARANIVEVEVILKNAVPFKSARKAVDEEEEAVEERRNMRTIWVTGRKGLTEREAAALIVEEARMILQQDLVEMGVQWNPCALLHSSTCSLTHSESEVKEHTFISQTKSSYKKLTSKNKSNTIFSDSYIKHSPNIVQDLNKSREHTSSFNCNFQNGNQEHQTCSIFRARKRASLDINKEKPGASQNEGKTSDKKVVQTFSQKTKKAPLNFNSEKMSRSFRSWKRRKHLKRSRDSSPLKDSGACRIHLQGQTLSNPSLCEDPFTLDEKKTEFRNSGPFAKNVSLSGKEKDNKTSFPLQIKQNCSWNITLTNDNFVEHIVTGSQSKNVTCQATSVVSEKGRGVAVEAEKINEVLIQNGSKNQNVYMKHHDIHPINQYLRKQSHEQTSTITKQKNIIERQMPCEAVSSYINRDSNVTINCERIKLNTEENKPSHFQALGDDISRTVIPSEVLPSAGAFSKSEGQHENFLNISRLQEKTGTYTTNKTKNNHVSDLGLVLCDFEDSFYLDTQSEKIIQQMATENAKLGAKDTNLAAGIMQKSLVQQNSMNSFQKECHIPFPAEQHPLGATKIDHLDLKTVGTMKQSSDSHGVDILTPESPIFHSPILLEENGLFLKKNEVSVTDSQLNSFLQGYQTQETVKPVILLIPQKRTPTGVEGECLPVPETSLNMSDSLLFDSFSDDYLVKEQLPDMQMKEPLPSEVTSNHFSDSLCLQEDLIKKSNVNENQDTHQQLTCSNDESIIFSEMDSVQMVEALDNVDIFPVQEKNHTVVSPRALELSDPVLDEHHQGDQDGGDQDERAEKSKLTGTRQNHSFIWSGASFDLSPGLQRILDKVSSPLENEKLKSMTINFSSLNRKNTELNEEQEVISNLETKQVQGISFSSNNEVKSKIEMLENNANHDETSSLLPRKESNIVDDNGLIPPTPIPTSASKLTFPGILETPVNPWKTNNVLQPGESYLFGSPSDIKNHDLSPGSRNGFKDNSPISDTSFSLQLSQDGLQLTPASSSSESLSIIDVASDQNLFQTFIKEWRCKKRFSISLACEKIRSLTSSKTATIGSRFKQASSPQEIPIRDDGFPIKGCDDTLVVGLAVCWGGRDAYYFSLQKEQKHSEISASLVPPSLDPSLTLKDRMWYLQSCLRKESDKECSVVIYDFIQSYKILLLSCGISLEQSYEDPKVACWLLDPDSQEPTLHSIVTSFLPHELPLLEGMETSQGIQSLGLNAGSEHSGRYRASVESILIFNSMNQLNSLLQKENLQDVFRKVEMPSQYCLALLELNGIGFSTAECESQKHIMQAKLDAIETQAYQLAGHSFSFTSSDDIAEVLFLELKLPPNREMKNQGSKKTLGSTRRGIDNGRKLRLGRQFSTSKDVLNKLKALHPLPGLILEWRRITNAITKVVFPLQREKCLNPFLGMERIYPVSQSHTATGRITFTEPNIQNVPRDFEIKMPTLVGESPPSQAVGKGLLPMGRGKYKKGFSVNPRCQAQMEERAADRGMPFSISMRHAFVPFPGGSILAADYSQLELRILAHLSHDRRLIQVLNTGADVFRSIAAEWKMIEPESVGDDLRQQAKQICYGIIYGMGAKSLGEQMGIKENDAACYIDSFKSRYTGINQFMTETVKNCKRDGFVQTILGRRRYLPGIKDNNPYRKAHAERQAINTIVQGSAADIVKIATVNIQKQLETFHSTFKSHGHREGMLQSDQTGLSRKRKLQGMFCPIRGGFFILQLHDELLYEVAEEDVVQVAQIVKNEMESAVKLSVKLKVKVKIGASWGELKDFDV
Effect on: enzyme activity
Action: inhibitor
Concentration: 77 µM
Relative to: untreated
Structure (SMILES) | remaining activity [%]
C[C@@H]1C[C@H]2[C@@H]3C[C@H](F)C4=CC(=O)C=C[C@]4(C)[C@@]3(Cl)[C@@H](O)C[C@]2(C)[C@H]1C(=O)COC(=O)C(C)(C)C | 85
CCn1cc(C(=O)O)c(=O)c2cc(F)c(N3CCNCC3)nc21 | 93.2
CC(C)N1CCN(c2ccc(OC[C@H]3CO[C@](Cn4cncn4)(c4ccc(Cl)cc4Cl)O3)cc2)CC1 (racemic) | 110
c1ccc(Cn2c(-c3ccc(OC[C@H](C4CCNCC4)n4c(-c5ccccc5)nc5ccccc54)cc3)nc3ccccc32)cc1 | 93.9
CC(=O)N[C@@H](CC(C)C)C(=O)O | 112

A few entries again (study 2):
Compound | viability
c1cnc(N2CCN(Cc3ccc4c(c3)OCO4)CC2)nc1 | 93.1%
CCOC(=O)N[C@@H]1CC[C@@H]2[C@@H](C1)C[C@H]1C(=O)O[C@H](C)[C@H]1[C@H]2/C=C/c1ccc(-c2cccc(F)c2)cn1 | 103%
OCCOCCN1CCN(C(c2ccccc2)c2ccc(Cl)cc2)CC1 (stereo not drawn) | 67.2%
CC(C)(C)NCC(O)COc1cccc2c1CCC(=O)N2 (stereo not drawn) | 93.9%
NC(=O)c1ncn([C@@H]2O[C@H](CO)[C@@H](O)[C@H]2O)c1O | 105%
